Experimental data of several laboratories.
Protocols differ between the studies behind these lines. Values after ≈ are worked out from the molar mass of the structure shown.
TDP1: Tyrosyl-DNA phosphodiesterase 1 (TDP1, Homo sapiens, UniProt Q9NUW8)
Sequence of UniProt Q9NUW8 (whole entry, looked up): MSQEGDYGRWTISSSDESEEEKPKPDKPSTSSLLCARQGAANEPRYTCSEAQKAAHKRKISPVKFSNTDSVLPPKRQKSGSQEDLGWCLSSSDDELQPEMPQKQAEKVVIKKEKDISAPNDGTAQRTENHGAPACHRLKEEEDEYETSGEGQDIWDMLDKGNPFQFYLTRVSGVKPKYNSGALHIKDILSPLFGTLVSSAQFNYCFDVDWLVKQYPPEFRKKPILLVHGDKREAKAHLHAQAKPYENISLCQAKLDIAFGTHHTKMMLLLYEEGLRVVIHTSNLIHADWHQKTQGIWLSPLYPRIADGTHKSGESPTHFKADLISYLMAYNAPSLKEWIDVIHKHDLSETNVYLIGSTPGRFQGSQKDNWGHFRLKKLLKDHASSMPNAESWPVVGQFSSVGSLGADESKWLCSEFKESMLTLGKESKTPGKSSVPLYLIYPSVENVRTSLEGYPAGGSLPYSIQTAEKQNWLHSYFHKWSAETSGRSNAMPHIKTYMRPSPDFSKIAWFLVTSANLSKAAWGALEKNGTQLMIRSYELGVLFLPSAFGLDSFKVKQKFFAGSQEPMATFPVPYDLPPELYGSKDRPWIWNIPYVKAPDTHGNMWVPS

| Compound | target or system | test | system | conditions | scale | quantity | value |
| --- | --- | --- | --- | --- | --- | --- | --- |
| O=C(O)c1ccc(Nc2c(-c3ccc(CON=Cc4cccn4-c4sc5c(c4C(=O)O)CCCC5)cc3)nc3cc(-c4ccccc4)ccn23)cc1 (mixture of isomers) | TDP1 | enzyme activity, inhibitor |  | 100 µM, unpurified compound |  | inhibition | 102% |
| CN1CCCNC(=O)c2cccc(c2)C(=O)NCCCN(C)CCCNc2cccc3c2C(=O)c2cccc(c2C3=O)NCCC1 | SAS | RNA-Seq, item: EXOSC9 mRNA |  | 1 µM, 6 h | baseline: untreated cells | log2 fold change | -0.487 |
| COC1CN([C@H]2CC[C@H]([C@@]3(C)Oc4c(Cl)cc(C(=O)NCc5c(SC)cc(C)[nH]c5=O)c(C)c4O3)CC2)C1 |  | RNA-seq, item: RYR1 mouse homolog | mouse, HT-1376 xenograft, whole blood | dose not given | baseline: vehicle | log2 fold change | 0.0423 |
| C=CC(=O)N1[C@H](c2ccc3c(c2)OCO3)c2[nH]c3ccccc3c2C[C@@H]1C(=O)N1CCN(C)CC1 | human cyclin E1 N112C-3xFLAG:CDK2 | co-IP with TMT proteomics, item: DHX9 |  | concentration not given, Q08211 | baseline: wild type DMSO | relative co-enrichment | 125% |
| C=CC(=O)Nc1cccc(Cn2ncc3cnc(Nc4cnn(CCOC)c4)nc32)c1 | MYO3B human | binding, KINOMEscan |  | 100 nM | lower = stronger binding | percent of control | 57% |
| Cn1ncc2cc(-c3cncc(Cl)c3N3CCC4(CCNC4=O)CC3)ccc21 | LS174T | gene expression, microarray, item: PTPRZ1 mRNA |  | concentration not given, 24 h | baseline: untreated cells | log2 fold change | 2.22 |
| CNS(=O)(=O)Nc1nccc(Cc2c(C)c3ccc(Oc4ncccc4F)cc3oc2=O)c1F | CAL-62 | cell viability |  | 7 days |  | IC50 | 142 nM |
| Cc1ncsc1-c1ccc(C(C)NC(=O)C2CC(O)CN2C(=O)C(NC(=O)CCCCCCCCCCN2CCCC(Nc3ncc(Cl)c(Nc4ccccc4S(=O)(=O)C(C)C)n3)C2)C(C)(C)C)cc1 (centres unmarked) | 22Rv1 | RNA-seq, item: ZNF497 mRNA |  | concentration not given | baseline: DMSO | log2 fold change | -1.47 |
| Cc1ccc(C=c2[nH]c3n(c2=O)CCCCC=3C=NOCc2ccc3nc(-c4ccccc4)c(Nc4ccc(C(=O)O)cc4)n3c2)cc1 | TDP1 | enzyme activity, inhibitor |  | 100 µM, unpurified compound |  | inhibition | 16.4% |
| C=C(NC(=O)c1csc(-c2nc3c(cc2O)-c2nc(cs2)C(=O)NC(C(C)O)C(=O)NC(=C(C)OC)c2nc(cs2)C(=O)NC2c4nc(cs4)C(=O)NC(COC(=O)c4c5c6c(cccc6n4O)COC(=O)C(OC4CC(C)(O)C(N(C)C)C(C)O4)C2OC5)c2nc-3cs2)n1)C(N)=O (centres unmarked) | Streptococcus pneumoniae |  | penicillin-resistant, 10 isolates | serum 50% |  | MIC50 | 7.8 ng/mL (≈ 5.43 nM) |
| Nc1ncc(-c2cc(-c3cnn(CC(F)(F)F)c3)ncc2F)nc1C(=O)NC1CNCC(F)C1 (centres unmarked) | TAOK2 | KINOMEscan |  | 1 µM | baseline: DMSO control | remaining binding | 85% |
